{"data": "Results gathered from unrelated publications", "ribH": "6,7-dimethyl-8-ribityllumazine synthase (ribH, Mycobacterium tuberculosis, UniProt P9WHE9)", "MAPK1": "Mitogen-activated protein kinase 1 (MAPK1, Homo sapiens, UniProt P28482)", "CYP2A6": "Cytochrome P450 2A6 (CYP2A6, Homo sapiens, UniProt P11509)", "MC4R": "Melanocortin receptor 4 (MC4R, Homo sapiens, UniProt P32245)", "RIPK1": "Receptor-interacting serine/threonine-protein kinase 1 (RIPK1, Homo sapiens, UniProt Q13546)", "TSPO A147T": "Translocator protein, A147T (TSPO, Homo sapiens, UniProt P30536)", "note": "Compare with care: the assays were run in different laboratories. Several values in a cell are separate wells, animals, samples, runs or records. Numbers after ± are the reported error.", "sequence of UniProt P30536 (whole entry, unmodified, looked up)": "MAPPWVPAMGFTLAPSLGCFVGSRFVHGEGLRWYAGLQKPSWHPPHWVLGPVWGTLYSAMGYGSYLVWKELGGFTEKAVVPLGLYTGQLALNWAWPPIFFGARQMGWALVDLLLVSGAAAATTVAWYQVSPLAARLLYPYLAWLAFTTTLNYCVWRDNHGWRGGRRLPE", "sequence of UniProt P28482 (whole entry, looked up)": "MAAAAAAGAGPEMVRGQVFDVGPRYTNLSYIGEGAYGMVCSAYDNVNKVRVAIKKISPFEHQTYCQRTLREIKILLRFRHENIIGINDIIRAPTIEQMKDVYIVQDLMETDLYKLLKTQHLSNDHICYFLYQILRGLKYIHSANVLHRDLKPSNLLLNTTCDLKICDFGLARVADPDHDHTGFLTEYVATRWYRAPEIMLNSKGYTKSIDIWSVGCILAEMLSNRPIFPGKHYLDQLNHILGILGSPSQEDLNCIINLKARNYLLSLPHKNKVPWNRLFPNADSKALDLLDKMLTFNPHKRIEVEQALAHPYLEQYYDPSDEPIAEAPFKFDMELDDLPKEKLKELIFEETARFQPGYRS", "sequence of UniProt P11509 (whole entry, looked up)": "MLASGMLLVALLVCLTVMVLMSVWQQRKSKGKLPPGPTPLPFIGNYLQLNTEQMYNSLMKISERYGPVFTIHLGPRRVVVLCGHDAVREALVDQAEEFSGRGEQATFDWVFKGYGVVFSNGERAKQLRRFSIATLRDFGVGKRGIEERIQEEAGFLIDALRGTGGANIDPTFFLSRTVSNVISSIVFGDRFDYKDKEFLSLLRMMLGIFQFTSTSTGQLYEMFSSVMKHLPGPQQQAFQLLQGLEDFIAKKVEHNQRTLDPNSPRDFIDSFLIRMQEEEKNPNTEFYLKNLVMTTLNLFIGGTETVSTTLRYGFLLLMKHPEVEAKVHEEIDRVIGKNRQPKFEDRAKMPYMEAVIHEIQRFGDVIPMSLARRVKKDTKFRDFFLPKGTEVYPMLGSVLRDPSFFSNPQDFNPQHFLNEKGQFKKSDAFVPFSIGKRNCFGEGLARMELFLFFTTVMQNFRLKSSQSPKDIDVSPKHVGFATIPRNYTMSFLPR", "sequence of UniProt P9WHE9 (whole entry, looked up)": "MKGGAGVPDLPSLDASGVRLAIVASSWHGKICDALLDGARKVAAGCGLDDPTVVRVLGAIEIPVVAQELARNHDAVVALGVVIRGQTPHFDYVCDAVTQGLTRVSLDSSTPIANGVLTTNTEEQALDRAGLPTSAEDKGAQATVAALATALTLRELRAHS", "sequence of UniProt P32245 (whole entry, looked up)": "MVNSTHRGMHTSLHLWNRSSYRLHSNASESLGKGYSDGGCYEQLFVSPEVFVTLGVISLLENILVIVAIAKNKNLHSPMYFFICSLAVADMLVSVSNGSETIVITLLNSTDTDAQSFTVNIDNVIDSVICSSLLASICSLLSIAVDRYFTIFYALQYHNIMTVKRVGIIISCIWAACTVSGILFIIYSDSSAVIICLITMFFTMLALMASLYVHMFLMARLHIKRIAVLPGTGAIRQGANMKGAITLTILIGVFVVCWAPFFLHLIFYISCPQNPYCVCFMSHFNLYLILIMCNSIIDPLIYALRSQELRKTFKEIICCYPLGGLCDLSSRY", "sequence of UniProt Q13546 (whole entry, looked up)": "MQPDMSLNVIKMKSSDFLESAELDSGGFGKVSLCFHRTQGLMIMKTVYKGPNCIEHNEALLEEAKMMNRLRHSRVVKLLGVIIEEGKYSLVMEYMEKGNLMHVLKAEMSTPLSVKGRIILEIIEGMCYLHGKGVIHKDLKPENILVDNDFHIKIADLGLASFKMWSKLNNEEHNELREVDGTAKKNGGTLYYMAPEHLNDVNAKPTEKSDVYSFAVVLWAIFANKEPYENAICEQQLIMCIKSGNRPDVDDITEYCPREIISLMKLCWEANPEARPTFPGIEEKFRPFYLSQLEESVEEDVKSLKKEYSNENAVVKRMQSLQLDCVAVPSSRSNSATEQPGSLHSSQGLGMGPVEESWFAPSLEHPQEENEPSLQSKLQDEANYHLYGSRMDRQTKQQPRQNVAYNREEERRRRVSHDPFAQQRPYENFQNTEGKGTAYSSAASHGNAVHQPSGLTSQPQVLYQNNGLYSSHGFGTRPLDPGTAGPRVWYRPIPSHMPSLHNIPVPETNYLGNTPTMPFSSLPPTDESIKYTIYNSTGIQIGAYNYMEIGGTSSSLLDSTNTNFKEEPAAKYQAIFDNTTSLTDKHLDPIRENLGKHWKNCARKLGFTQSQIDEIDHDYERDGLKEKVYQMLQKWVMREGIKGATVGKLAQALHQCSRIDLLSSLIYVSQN", "sequence of UniProt P28335 (whole entry, looked up)": "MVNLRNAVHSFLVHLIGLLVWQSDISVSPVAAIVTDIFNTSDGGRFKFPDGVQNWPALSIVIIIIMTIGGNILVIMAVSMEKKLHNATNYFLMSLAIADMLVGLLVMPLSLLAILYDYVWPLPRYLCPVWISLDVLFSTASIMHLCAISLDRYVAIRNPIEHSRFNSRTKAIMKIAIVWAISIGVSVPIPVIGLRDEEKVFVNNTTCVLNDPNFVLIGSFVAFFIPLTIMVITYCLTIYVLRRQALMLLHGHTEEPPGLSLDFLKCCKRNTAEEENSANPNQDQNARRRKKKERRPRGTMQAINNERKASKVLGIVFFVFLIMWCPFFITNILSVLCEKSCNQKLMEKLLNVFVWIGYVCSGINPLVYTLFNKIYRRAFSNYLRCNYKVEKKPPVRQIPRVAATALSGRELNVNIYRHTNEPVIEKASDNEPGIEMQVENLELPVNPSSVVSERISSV", "sequence of UniProt P16068 (whole entry, looked up)": "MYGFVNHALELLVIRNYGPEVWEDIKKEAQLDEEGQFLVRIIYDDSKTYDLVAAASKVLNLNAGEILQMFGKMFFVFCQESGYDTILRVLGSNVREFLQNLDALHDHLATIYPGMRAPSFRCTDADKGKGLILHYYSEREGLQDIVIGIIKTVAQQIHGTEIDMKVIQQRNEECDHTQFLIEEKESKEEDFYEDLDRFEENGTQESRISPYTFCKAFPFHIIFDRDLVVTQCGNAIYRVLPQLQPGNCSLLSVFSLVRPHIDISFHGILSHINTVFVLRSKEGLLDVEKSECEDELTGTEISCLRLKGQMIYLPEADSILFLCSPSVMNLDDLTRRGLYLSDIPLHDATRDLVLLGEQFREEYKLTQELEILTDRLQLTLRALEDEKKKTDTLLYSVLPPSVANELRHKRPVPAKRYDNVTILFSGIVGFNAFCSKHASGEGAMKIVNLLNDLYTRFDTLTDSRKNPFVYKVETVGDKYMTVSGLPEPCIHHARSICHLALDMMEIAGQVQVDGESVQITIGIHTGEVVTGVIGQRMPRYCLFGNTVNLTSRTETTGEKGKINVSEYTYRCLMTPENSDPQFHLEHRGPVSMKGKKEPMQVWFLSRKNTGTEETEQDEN", "sequence of UniProt O60218 (whole entry, looked up)": "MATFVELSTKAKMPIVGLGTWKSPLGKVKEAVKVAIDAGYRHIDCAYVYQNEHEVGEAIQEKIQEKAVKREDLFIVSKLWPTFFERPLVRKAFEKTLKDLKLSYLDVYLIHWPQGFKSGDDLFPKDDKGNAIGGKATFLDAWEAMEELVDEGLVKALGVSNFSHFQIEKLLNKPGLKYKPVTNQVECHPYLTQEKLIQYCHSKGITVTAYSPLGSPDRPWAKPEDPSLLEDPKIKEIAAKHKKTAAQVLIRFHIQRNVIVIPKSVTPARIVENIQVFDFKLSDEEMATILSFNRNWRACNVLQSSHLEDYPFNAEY", "sequence of UniProt P31424 (whole entry, looked up)": "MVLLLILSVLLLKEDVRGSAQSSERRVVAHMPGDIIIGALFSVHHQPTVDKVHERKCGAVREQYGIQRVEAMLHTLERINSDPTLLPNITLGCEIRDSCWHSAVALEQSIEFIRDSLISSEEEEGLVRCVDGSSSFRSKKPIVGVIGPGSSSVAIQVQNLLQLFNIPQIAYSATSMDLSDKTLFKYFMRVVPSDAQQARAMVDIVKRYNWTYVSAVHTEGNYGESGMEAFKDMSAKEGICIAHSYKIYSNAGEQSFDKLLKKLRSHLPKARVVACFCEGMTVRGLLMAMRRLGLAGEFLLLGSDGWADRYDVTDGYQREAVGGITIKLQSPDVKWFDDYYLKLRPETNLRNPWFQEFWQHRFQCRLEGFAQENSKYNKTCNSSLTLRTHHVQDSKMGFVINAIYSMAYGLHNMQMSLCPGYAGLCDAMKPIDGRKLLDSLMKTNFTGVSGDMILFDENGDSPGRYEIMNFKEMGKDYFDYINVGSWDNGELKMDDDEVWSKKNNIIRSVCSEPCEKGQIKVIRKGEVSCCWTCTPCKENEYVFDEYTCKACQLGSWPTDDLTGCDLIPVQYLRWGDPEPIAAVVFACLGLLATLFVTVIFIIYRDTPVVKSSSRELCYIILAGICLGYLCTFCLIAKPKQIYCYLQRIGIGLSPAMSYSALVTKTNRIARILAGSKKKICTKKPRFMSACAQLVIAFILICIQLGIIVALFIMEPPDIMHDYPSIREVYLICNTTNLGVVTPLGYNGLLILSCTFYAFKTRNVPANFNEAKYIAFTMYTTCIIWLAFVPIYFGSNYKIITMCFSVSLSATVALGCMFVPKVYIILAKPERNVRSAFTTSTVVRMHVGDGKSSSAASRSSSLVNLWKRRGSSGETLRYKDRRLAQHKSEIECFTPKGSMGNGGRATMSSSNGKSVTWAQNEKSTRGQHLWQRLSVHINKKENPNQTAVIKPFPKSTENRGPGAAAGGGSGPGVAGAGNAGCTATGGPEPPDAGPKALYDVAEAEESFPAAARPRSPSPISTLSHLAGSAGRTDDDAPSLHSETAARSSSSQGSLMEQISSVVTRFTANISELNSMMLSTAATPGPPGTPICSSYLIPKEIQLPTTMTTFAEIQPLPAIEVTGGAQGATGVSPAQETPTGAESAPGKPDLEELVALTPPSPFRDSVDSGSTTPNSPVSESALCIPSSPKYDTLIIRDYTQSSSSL"}
{"Substance": "O=c1[nH]c(/C=C/c2ccc[nH]2)c([N+](=O)[O-])c(=O)[nH]1", "target": "ribH", "assay": "enzyme activity, inhibitor", "conditions": "pH 7.0", "Ki": "30 ± 8 µM"}
{"Substance": "CC(=O)N[C@H]1C(O)O[C@H](CO)[C@@H](O[C@@H]2O[C@H](CO)[C@H](O)[C@H](O)[C@H]2O)[C@@H]1O[C@@H]1O[C@@H](C)[C@@H](O)[C@@H](O)[C@@H]1O (some centres unmarked)", "target": "Collectin-12, C-type lectin domain (COLEC12, Homo sapiens, UniProt Q5KU26)", "Ki": "87 µM"}
{"Substance": "CCOC(=O)C1=CC(C)(C(=O)c2ccccc2)CCC1=O (centres unmarked)", "target": "MAPK1", "assay": "ligand displacement, FP", "Ki": "144 µM"}
{"Substance": "5,10-methylenetetrahydrofolate", "target": "thyX (Thermotoga maritima, UniProt Q9WYT0)", "assay": "oxidase activity, competitive inhibitor", "conditions": "pH 7.9, 37 °C, with: O2 competitor, NADPH 100 µM, dUMP 100 µM", "Ki": "1.9 ± 0.3 µM"}
{"Substance": "CCCCSC[C@H]1CN(Cc2c[nH]c3c(N)ncnc23)C[C@@H]1O", "target": "MTA/SAH nucleosidase (Campylobacter jejuni subsp. jejuni, UniProt Z9IB28FKP7)", "assay": "enzyme activity, inhibitor", "conditions": "slow-onset tight binding", "Ki": "0.00075 µM"}
{"Substance": "CC1(C)C=C(C(=O)OC(C)(C)C)C(=O)CC1", "target": "MAPK1", "assay": "ligand displacement, FP", "Ki": "31.2 µM"}
{"Substance": "Nc1nc2[nH]c(CCCc3ccc(C(=O)N[C@@H](CCC(=O)O)C(=O)O)s3)cc2c(=O)[nH]1", "target": "SHMT2 (Homo sapiens, UniProt P34897)", "assay": "enzyme activity, inhibitor, fluorescence", "Ki": "188 µM"}
{"Substance": "CCCCCCC/C=C/C=O", "target": "CYP2A6", "assay": "competitive inhibitor, measured: 7-hydroxycoumarin", "test system": "human liver S9", "conditions": "30 min, pH 7.4, with: coumarin", "Ki": "59 ± 6 µM"}
{"Substance": "NC(=O)[C@H](CO)NC(=O)CCCCCn1cc(COc2cc(OCc3cn(CCCCCC(=O)N[C@@H](CO)C(N)=O)nn3)cc(OCc3cn(CCCCCC(=O)N[C@@H](CO)C(N)=O)nn3)c2)nn1", "target": "MC4R", "assay": "competitive binding", "test system": "HEK293 expressing MC4R and CCK2R", "Ki": "> 10 µM"}
{"Substance": "CCCCCC/C=C/C=O", "target": "CYP2A6", "assay": "inhibitor", "conditions": "30 min, pH 7.4", "Ki": "34 ± 3 µM"}
{"Substance": "O=c1[nH]c(/C=C/c2cccc(O)c2)c([N+](=O)[O-])c(=O)[nH]1", "target": "ribH", "assay": "enzyme activity, inhibitor", "conditions": "pH 7.0", "Ki": "7.1 ± 0.8 µM"}
{"Substance": "Nc1ccc(C(=O)O)cc1", "target": "mushroom tyrosinase", "assay": "diphenolase activity, inhibitor", "conditions": "pH 6.8, 20 °C, with: caffeic acid substrate", "Ki": "20 µM"}
{"Substance": "O=C(NNC(=NS(=O)(=O)c1ccc(-n2nc(C(F)(F)F)cc2-c2cccs2)cc1)N1CCCC1)c1ccc(Cl)cc1", "target": "Aminopeptidase N (ANPEP, Sus scrofa, UniProt P15145)", "assay": "enzyme activity, inhibitor", "conditions": "30 min preincubation, 37 °C, with: L-Leu-pNA", "Ki": "1.95 µM"}
{"Substance": "CCCCCCCCCCC=O", "target": "CYP2A6", "assay": "inhibitor", "conditions": "30 min, pH 7.4", "Ki": "68 ± 7 µM"}
{"Substance": "COc1ccccc1/C=C/c1nc(O)nc(O)c1[N+](=O)[O-]", "target": "ribH", "assay": "enzyme activity, inhibitor", "conditions": "pH 7.0", "Ki": "28 ± 7 µM"}
{"Substance": "COc1ccc2c(c1)C1=NN(C(C)=O)C(c3ccc(F)cc3)C1CC2 (centres unmarked)", "target": "RIPK1", "assay": "binding, fluorescence polarisation competition", "conditions": "with: fluorescein-necrostatin-3", "Ki": "0.76 ± 0.21 µM"}
{"Substance": "COc1ccc(/C=C/c2[nH]c(=O)[nH]c(=O)c2[N+](=O)[O-])cc1OC", "target": "ribH", "assay": "enzyme activity, inhibitor", "conditions": "pH 7.0", "Ki": "32 ± 16 µM"}
{"Substance": "CCCCCCCCCCCCNC(=O)[C@@H]1CCCN1C(=O)[C@@H]1CCCN1", "target": "Plasma kallikrein (KLKB1, Homo sapiens, UniProt P03952)", "assay": "enzyme activity, inhibitor", "Ki": "> 1000 µM"}
{"Substance": "O=C(O[C@@H]1Cc2c(O)cc(O)cc2O[C@@H]1c1cc(O)c(O)c(O)c1)c1cc(O)c(O)c(O)c1", "target": "Organic anion transporter 3 (Rattus norvegicus, UniProt Q9R1U7)", "assay": "transporter uptake, inhibitor", "Ki": "56.5 µM"}
{"Substance": "C[C@@H](O[C@H]1OCCN(Cc2n[nH]c(=O)[nH]2)[C@H]1c1ccc(F)cc1)c1cc(C(F)(F)F)cc(C(F)(F)F)c1", "target": "UGT2B7 (Homo sapiens, UniProt P16662)", "assay": "enzyme activity, inhibitor", "conditions": "30 min, pH 6.5", "Ki": "15.1 µM"}
{"Substance": "COc1ccc(/C=C/c2[nH]c(=O)[nH]c(=O)c2[N+](=O)[O-])c(OC)c1OC", "target": "ribH", "assay": "enzyme activity, inhibitor", "conditions": "pH 7.0", "Ki": "48 ± 23 µM"}
{"Substance": "Nc1nc(=O)[nH]nc1Nc1ccc(O)cc1", "target": "GUCY1B1/GUCY1A1 (Bos taurus, UniProt P16068+P19687)", "assay": "enzyme activity, inhibitor", "conditions": "non-competitive, with: SNAP 100 µM, GTP", "Ki": "28 ± 11 µM"}
{"Substance": "CCN(CC)C(=O)Cn1c2ccccc2c2cc(-c3ccc(OC)cc3)ccc21", "target": "TSPO A147T", "assay": "radioligand binding", "conditions": "with: [3H]PK11195", "Ki": "0.0934 ± 0.0146 µM"}
{"Substance": "C=C(C)C(=O)Nc1c(SC[C@H](O)[C@H](O)[C@H](O)CO)[nH]c(=O)[nH]c1=O", "target": "ribH", "assay": "inhibitor", "conditions": "pH 7.0, with: substrate 1 varied, other substrate 2 constant", "Ki": "198 ± 72 µM"}
{"Substance": "COc1cncc(C=O)c1", "target": "Nicotinamidase (Plasmodium falciparum, UniProt O97284)", "assay": "competitive inhibitor", "conditions": "with: nicotinamide", "Ki": "0.039 ± 0.004 µM"}
{"Substance": "O=c1[nH]c(/C=C/c2ccc(O)cc2)c([N+](=O)[O-])c(=O)[nH]1", "target": "ribH", "assay": "enzyme activity, inhibitor", "conditions": "pH 7.0", "Ki": "12 ± 5 µM"}
{"Substance": "O=C(O)c1ccccn1", "target": "mushroom tyrosinase", "assay": "monophenolase activity, inhibitor", "conditions": "pH 6.8, 20 °C, with: p-coumaric acid substrate", "Ki": "1970 µM"}
{"Substance": "CN1C(=O)C(Cc2c[nH]c3ccccc23)NC1=S (centres unmarked)", "target": "RIPK1", "assay": "binding, fluorescence polarisation competition", "conditions": "with: fluorescein-necrostatin-3", "Ki": "2.4 ± 0.4 µM"}
{"Substance": "Nc1nc2c(ncn2[C@@H]2O[C@@H]3COP(=O)(O)O[C@H]3[C@H]2O)c(=O)[nH]1", "target": "Cyclic nucleotide-gated potassium channel (Spirochaeta thermophila, UniProt G0GA88)", "assay": "channel activity, inhibitor, single-channel bilayer recording", "conditions": "100 mV, with: cAMP 100 µM", "Ki": "~4 µM and 4 µM"}
{"Substance": "CCC#CC[C@H](C)[C@H](O)/C=C/[C@H]1CC(F)(F)C(=O)N1CCCCCCC(=O)O", "target": "Ptger4 (Rattus norvegicus, UniProt P43114)", "assay": "ligand displacement, radioligand", "Ki": "0.00024 µM"}
{"Substance": "CCOC(=O)C1=C(O)C(=O)N(Cc2ccccc2)C1", "target": "AKR1B10 (Homo sapiens, UniProt O60218)", "assay": "enzyme activity, inhibitor", "Ki": "13 µM"}
{"Substance": "O=c1[nH]c(/C=C/c2ccc3ccccc3c2)c([N+](=O)[O-])c(=O)[nH]1", "target": "ribH", "assay": "enzyme activity, inhibitor", "conditions": "pH 7.0", "Ki": "11 ± 3 µM"}
{"Substance": "CCN(Cc1ccccc1)C(=O)Cn1c(=O)n(C)c2cnc(-c3ccccc3)nc21", "target": "TSPO A147T", "assay": "radioligand binding", "conditions": "with: [3H]PK11195", "Ki": "0.0313 ± 0.0036 µM"}
{"Substance": "CCCCCCCCCCCC=O", "target": "CYP2A6", "assay": "inhibitor", "conditions": "30 min, pH 7.4", "Ki": "48 ± 9 µM"}
{"Substance": "CC1(CCN2CCc3ccccc3C2)Cc2cc(Cl)ccc2C1=O (centres unmarked)", "target": "HTR2C (Homo sapiens, UniProt P28335)", "assay": "radioligand binding", "conditions": "with: [3H]Mesulergine", "Ki": "1.38 µM"}
{"Substance": "O=c1[nH]c(/C=C/c2ccccc2F)c([N+](=O)[O-])c(=O)[nH]1", "target": "ribH", "assay": "enzyme activity, inhibitor", "conditions": "pH 7.0", "Ki": "7.8 ± 4.6 µM"}
{"Substance": "CCN(CC)C(=O)Cn1c2ccccc2c2cc(-c3ccccc3)ccc21", "target": "TSPO A147T", "assay": "radioligand binding", "conditions": "with: [3H]PK11195", "Ki": "0.16 ± 0.031 µM"}
{"Substance": "Cc1cccc(NC(=O)c2ccc(C#N)cc2)n1", "target": "Grm5 (Rattus norvegicus, UniProt P31424)", "assay": "ligand displacement, radioligand", "conditions": "cell membranes", "Ki": "> 10 µM"}
{"Substance": "CC[C@H](C)[C@H](NC(=O)CN)C(=O)N[C@H](C(=O)N[C@@H](CC(N)=O)C(=O)N[C@H](C(=O)N[C@@H](CC(C)C)C(=O)N[C@@H](CCC(N)=O)C(=O)N[C@@H](CCCCN)C(=O)N[C@@H](Cc1ccc(O)cc1)C(=O)N[C@@H](Cc1ccc(O)cc1)C(=O)N[C@@H](CO)C(=O)N[C@@H](CCCNC(=N)N)C(=O)N[C@H](C(=O)N[C@@H](CCCNC(=N)N)C(=O)NCC(=O)NCC(=O)N[C@@H](CCCNC(=N)N)C(=O)N[C@@H](CO)C(=O)N[C@@H](C)C(=O)N[C@H](C(N)=O)C(C)C)C(C)C)[C@@H](C)O)[C@@H](C)CC", "target": "MC4R", "assay": "ligand displacement in cells", "Ki": "0.744 µM"}
{"Substance": "Cc1cc(-c2cccc(-n3cc(COC(=O)[C@]4(C)C=C(C(=O)OC(C)(C)C)C(=O)CC4)nn3)c2)c(C)c2c1CNCC2", "target": "MAPK1", "assay": "ligand displacement, FP", "Ki": "4.4 µM"}
{"Substance": "O=C(CCl)Nc1c(NC[C@H](O)[C@H](O)[C@H](O)CO)[nH]c(=O)[nH]c1=O", "target": "ribH", "assay": "inhibitor", "conditions": "pH 7.0, with: substrate 1 varied, other substrate 2 constant", "Ki": "57 ± 22 µM"}
{"note": "For quick reference, copied from above:"}
{"Substance": "5,10-methylenetetrahydrofolate", "target": "thyX (Thermotoga maritima, UniProt Q9WYT0)", "assay": "oxidase activity, competitive inhibitor", "conditions": "pH 7.9, 37 °C, with: O2 competitor, NADPH 100 µM, dUMP 100 µM", "Ki": "1.9 ± 0.3 µM"}
{"Substance": "CCCCSC[C@H]1CN(Cc2c[nH]c3c(N)ncnc23)C[C@@H]1O", "target": "MTA/SAH nucleosidase (Campylobacter jejuni subsp. jejuni, UniProt Z9IB28FKP7)", "assay": "enzyme activity, inhibitor", "conditions": "slow-onset tight binding", "Ki": "0.00075 µM"}
{"Substance": "CC1(C)C=C(C(=O)OC(C)(C)C)C(=O)CC1", "target": "MAPK1", "assay": "ligand displacement, FP", "Ki": "31.2 µM"}
{"Substance": "Nc1nc2[nH]c(CCCc3ccc(C(=O)N[C@@H](CCC(=O)O)C(=O)O)s3)cc2c(=O)[nH]1", "target": "SHMT2 (Homo sapiens, UniProt P34897)", "assay": "enzyme activity, inhibitor, fluorescence", "Ki": "188 µM"}
{"Substance": "CCCCCCC/C=C/C=O", "target": "CYP2A6", "assay": "competitive inhibitor, measured: 7-hydroxycoumarin", "test system": "human liver S9", "conditions": "30 min, pH 7.4, with: coumarin", "Ki": "59 ± 6 µM"}
